# Results of several laboratories.
# A part holds a random share of what one study measured. Substitutions count along the parent as printed.

# Series 1
# Target: RING finger protein unkempt homolog, zinc fingers 1-6, GST-SBP tag (UNK, Homo sapiens, UniProt Q9C0B0, residues 30-357)
# Technique: RNA Bind-n-Seq
# Form: RNA
# Sample: in vitro
# Tested at: not given
# Notes: RNA with constant flanks, human and mouse sites, ends assumed
# Reference: input RNA pool
# Direction: higher = stronger binding
# Shared flanks, not repeated: GGGAGUUCUACAGUCCGACGAUC … CAACAGAGGAUUGAGCAUCA
# Residues (chain): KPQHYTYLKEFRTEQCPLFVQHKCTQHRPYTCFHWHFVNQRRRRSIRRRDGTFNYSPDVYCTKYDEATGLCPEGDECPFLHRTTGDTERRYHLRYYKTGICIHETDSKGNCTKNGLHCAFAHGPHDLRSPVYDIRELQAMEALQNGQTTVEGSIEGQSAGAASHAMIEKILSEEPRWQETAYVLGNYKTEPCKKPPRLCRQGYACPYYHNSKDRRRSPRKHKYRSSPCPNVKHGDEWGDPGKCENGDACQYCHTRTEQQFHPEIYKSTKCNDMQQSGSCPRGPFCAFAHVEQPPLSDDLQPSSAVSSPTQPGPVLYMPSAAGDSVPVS
Sequence,bound/input enrichment [ratio]
GCUCACAGUAUUAUGGGAAACCCAGGAAGCAAAAAUUUUCCUCGAAGAUAUUUGCCUCCAAAUUUGAAGACAUGGCCACAGAGAGGCAGAUCUUUGAGAGGCAGCCAGCAUUCCUCUCAA,0.162
UUGGAUAUUUUUUCAGCAAAGUAUCAUUUAGAAAAAAUUUUCUUGAAACAAAGUCUAUAAAGUUCUAAGUCCUACCAUUGAGUGAAUUUGAUAUUAUGGCAGCAACUUACAGACUUGUGG,0.301
CUGCUCACGCAAUACGAGCGCGAGAAGGCGCUGCGCAAACAGGCCGAGGAGAAAUUCAUCGAAUUUGAAGAUGCCUUGGAACAAGAGAAGAAAGAACUCCAGAUCCAGGUAGAACAUUAU,0.189
CUGAAAGAGAAGAGAUCCCUUAGGCAAAGACUGUUGAAACCCAUGUGCCAGGAAAACUUACCUAUUGAAGCUGUUUAUCACAGAUAUAUGGUACAUUUGCUGGAGUUGGCUGUGACUUUC,0.185
GAAGAAGACGAACACUUCGAUGACACAGUGGUUUGUCUUGAUACUUAUAAUUGUGAUCUGCAUUUUAAAAUCUCGAGAGACCGUCUGAGUGCUUCUUCCCUUACUAUGGAGAGUUUUGCU,0.222
CGCUCGCUGGCCUUUAGGAAGGAGCUGCAGGAUGGGGGCCUCCGAAGCAGCGGCUUCUUCAGCUCCUUCGAGGAGAGCGACAUUGAGAACCACCUCAUUAGCGGACACAAUAUUGUGCAG,0.23
UCUACAUAUUUUGCUUGGUGCCCGGAUGGUGAGCAUAUUUUAACAGCUACAUGUGCUCCCAGGUUACGGGUUAAUAAUGGAUACAAAAUUUGGCAUUAUACUGGCUCUAUCUUGCACAAG,0.218
ACGGUCACCAUUCUUGUCAGCCUGGCCCUUGCCUUCCUUGCUUGCAUUGUGUUCCUGGUGGUUUACAAAGCCUUUACCUAUGACCACAGCUGUCCUGAAGGAUUUGUCUACAAGCACAAG,0.0615
UUGUCCAAAAGGCGGAGUCAGUUAAAACAAGCUGUUGCCAAAAUGGUUCAACAGUGCUGUACUUAUGUUGAGGAAAUCACAGACCUUCCUAUCAAACUUCGAUUAAUUGAUACUCUACGA,0.0746
AGGACCUAUUCCAAUAGGCUCUUGGUGUUUCCCAUAUCAAGAUUUCUGCUAGCUAAUGCAUAGAGGGAAUACUGUCUAAAAAUAGACCCUUUCUUCCCAAAGGUUGGGAGGUGGGACCUG,0.222
AGUAAAAAUCUACCAAUUCUCAGGCACCAGGGUCAGCAGUUGGCCAACAAAUUGCAGUGUCCUUUUGUAGACGUACCUACUGGUACAUAUCCUCGUAAAUUUAAUGAAUCACAAAUAAAG,0.918

# Series 2
# Target: CCNA2, cyclin fold, Cln2 fusion (human)
# Technique: yeast growth competition, sequencing
# Sample: yeast
# Notes: weak parent motif
# Reference: not given
# Direction: higher = stronger binding
# Starting sequence: SLBP docking peptide (human); ARYKRKLLINDFG
Change,normalised enrichment score
ARYKQKLLINDFG [R5Q],0.109
ARYKRSLLINDFG [K6S],0.917
ARYKRKLLITDFG [N10T],1.21
ARYKRKPLINDFG [L7P],1.13
ARYKRNLLINDFG [K6N],2.76
ARYKRKLSINDFG [L8S],0.565
ARYKPKLLINDFG [R5P],0.848
ARYHRKLLINDFG [K4H],1.38
ARYKRKLLINLFG [D11L],1.97
ARYKRKLLKNDFG [I9K],2.11
LRYKRKLLINDFG [A1L],0.229
ARYKRGLLINDFG [K6G],1.05
ARYKYKLLINDFG [R5Y],0.0237
ARYKRKLLINDSG [F12S],0.817
ARYKRKFLINDFG [L7F],0.815
ARYKRKLLINDFL [G13L],0.842
ARYKRKLLMNDFG [I9M],1.03
ARYKWKLLINDFG [R5W],0.719
ARYKRKLLIPDFG [N10P],1.31
ARTKRKLLINDFG [Y3T],1.17
ARYKRKLLINPFG [D11P],2.64
ARYKRKLLINWFG [D11W],1.2
ARYKRKLKINDFG [L8K],0.196
ARYKRKLMINDFG [L8M],1.46
ARYKRKLLINDFH [G13H],1.07

# Series 3
# Target: Centromere-binding protein 1, full length, N-terminal tag (CBF1, Saccharomyces cerevisiae, UniProt P17106, residues 1-351)
# Chain of UniProt P17106 (whole entry, looked up): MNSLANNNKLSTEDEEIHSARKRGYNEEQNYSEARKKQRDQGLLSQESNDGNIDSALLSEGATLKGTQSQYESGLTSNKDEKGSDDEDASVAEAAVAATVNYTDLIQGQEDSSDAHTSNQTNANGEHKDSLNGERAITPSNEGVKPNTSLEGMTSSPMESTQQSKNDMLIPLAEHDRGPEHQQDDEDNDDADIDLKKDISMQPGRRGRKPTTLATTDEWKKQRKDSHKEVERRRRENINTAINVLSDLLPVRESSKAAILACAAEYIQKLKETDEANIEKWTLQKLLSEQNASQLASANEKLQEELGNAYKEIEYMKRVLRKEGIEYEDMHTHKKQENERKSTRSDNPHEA
# Technique: protein-binding microarray
# Form: double-stranded DNA, one strand shown
# Sample: in vitro
# Tested at: 0.8 µM
# Notes: whole 60-bp probe, no competitor
# Direction: higher = stronger binding
# Shared flanks, not repeated: … GTCTTGATTCGCTTGACGCTGCTG
Sequence,fluorescence intensity [a.u.]
CTAGAAACAGATCTTGATGTTACAGCAAGGTCATTC,481
GAATTGCTGTGAAGAGTGGTGTGGATCCAAACGTAG,541
GAAGGGCCAGTATTTTATCTGATGTAGGGCAAATAG,529
CTACAGAAAACTTAGATCGTGACAGCAAATTAATTC,1440
CTAAAAGGCCTTCACATGGTGATCCATCTTCTATTC,563
GAAGAATAAATAGACACTCACATGTATATTAATTAG,1240
CTACGCGCGCAAAAGCACGCACGCATTGACCGGTTC,502
GAACGGGAATTACAGCTCGTGTTGAGTGATGATTAG,582
TGTACGAAGCTATGTGATATTTCTATAGTAGTTAGG,540
CTACTTATCGTTCATCACATGTTATTTTTTTCATTC,2290
CTATAAGAGATTAGACACGTTATCTGGAGGTAATTC,609
CTATTGTTCTGAAATCAGGAGAATTAGAGTAGGTTC,569
GAACGTAATAGGTATCACGCTATTTACTCTTGCTAG,863
CTATTTCGTGCAGCTTACATCAGCACAATCCATTTC,543
GAACGGTGGGCATTGTACCTGATCATGCTAGACTAG,527
CTAAAATAGTCATATCACATGCGGATACACTTCTTC,1120

# Series 4
# Target: ABI1, truncated, D143A, DHFR fusion (Arabidopsis thaliana)
# Technique: DHFR PCA, deep sequencing
# Sample: yeast
# Notes: methotrexate growth selection, single substitutions
# Together with: (+)-ABA 0.032 µM
# Reference: wild-type fitted maximum
# Direction: higher = stronger binding
# Starting sequence: PYL1, truncated, DHFR fusion (Arabidopsis thaliana); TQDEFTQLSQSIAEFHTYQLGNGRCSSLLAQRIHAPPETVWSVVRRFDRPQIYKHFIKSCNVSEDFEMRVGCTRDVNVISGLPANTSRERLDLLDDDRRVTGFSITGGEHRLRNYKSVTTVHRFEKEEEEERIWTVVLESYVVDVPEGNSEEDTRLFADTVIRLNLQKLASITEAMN
Change,relative binding score [%]
R163W,-1.87
R123V,-1.23
Q10N,27.8
S59K,0.821
V118H,12.7
L20G,22.8
E147H,11.3
T160P,-1.27
S26V,0.427
G107E,23.9
T120I,5.34
D48H,-14.8
F15Q,-8.36
F66H,7.71
Q7G,21.9
Y141I,1.57
R90K,-1.06

# Series 5
# Target: ATF3, bZIP domain (human)
# Technique: DHFR protein complementation
# Sample: yeast
# Notes: single substitutions, most at no-binding floor
# Reference: wild-type JUN-FOS pair
# Direction: higher = stronger binding
# Starting sequence: JUN, bZIP domain (human); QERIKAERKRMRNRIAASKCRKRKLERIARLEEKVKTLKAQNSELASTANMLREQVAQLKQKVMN; partner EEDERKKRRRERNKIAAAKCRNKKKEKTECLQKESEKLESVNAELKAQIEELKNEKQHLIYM
Change,binding fitness [natural log]
E44W,-0.321
L45T,-1.01
I28T,-0.198
V35G,-1.22
L52C,-1.33
Q58P,-1.3
L38H,-1.32
T48M,-0.106
A40N,-0.239
A46N,-0.0599
L45D,-0.984
L31K,-1.09
A40D,-0.207
L31Q,-0.601
A46Y,-0.253
L38Y,-0.787
T48D,-0.374
N42D,-1.38
K36S,-0.112
Q55K,-0.405
E32V,-0.217
A40Y,-0.348
R53A,-0.125
R30G,-0.0586
L45C,-1.26

# Series 6
# Target: Histone acetyltransferase KAT6A, both winged helices, GST fusion (KAT6A, Homo sapiens, UniProt Q92794, residues 1-181)
# Technique: protein binding microarray
# Form: double-stranded DNA, one strand shown
# Sample: in vitro
# Tested at: not given
# Notes: 8-mer, flanks averaged, mean of 2 arrays, mostly near background
# Reference: not given
# Direction: higher = stronger binding
# Residues (chain): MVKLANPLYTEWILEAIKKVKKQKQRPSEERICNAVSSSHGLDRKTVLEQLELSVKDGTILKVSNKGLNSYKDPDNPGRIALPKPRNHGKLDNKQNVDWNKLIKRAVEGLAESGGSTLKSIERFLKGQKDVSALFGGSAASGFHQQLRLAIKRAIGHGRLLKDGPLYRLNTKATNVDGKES
Sequence,E-score
GTACTTAA,-0.123
ATGTTGAA,-0.00154
ACTTCCAG,-0.0715
CAACCGGC,0.229
AATACCGC,0.256
AGCAAAGC,-0.0804
AACCAGGA,-0.0124
ACGCACCT,-0.00145
CTCTTTGA,-0.0249
TCACGGGA,0.24
ACACACGT,-0.0637
CACTTGTC,-0.12
CTATGCGA,0.106
GTGAAAGA,-0.0449
TCTTAACA,-0.0705
CGAAACAC,0.113
ACTGGTTC,0.0242
GATCGGTA,0.0886
CAGTTCCG,0.193
AGTTTTAT,-0.101
AGAGGAGC,-0.0886
ATAATGGC,0.153
AGGACACA,-0.0744

# Single results of other studies
Molecule,target,test,system,setting,scale,endpoint,result
"PhoQ, residues 284 288 289 292 302 303 SVTLVV","PhoP, residues 12 14 15 18 19 STWGI (Escherichia coli, UniProt P23836)","Sort-seq, item: YFP reporter",E. coli,"PhoQ-PhoP variant library, together with: 10 µM Mg2+","reference: high Mg2+ state, higher = stronger signaling",fold induction,4.65

# A few entries again (series 2):
Change,normalised enrichment score
ARYKRKLLITDFG [N10T],1.21
ARYKRKPLINDFG [L7P],1.13
ARYKRNLLINDFG [K6N],2.76
ARYKRKLSINDFG [L8S],0.565
ARYKPKLLINDFG [R5P],0.848
ARYHRKLLINDFG [K4H],1.38
ARYKRKLLINLFG [D11L],1.97
ARYKRKLLKNDFG [I9K],2.11
LRYKRKLLINDFG [A1L],0.229
ARYKRGLLINDFG [K6G],1.05
ARYKYKLLINDFG [R5Y],0.0237
ARYKRKLLINDSG [F12S],0.817
ARYKRKFLINDFG [L7F],0.815
ARYKRKLLINDFL [G13L],0.842
ARYKRKLLMNDFG [I9M],1.03
ARYKWKLLINDFG [R5W],0.719
ARYKRKLLIPDFG [N10P],1.31
ARTKRKLLINDFG [Y3T],1.17
